Experimental data of several laboratories.
A part holds a random share of what one study measured. Substitutions count along the parent as printed.

Sample 1
Target: Sal-like protein 4, full length isoform A (SALL4, Homo sapiens, UniProt Q9UJQ4, residues 1-1053)
Sequence of UniProt Q9UJQ4 (whole entry, looked up): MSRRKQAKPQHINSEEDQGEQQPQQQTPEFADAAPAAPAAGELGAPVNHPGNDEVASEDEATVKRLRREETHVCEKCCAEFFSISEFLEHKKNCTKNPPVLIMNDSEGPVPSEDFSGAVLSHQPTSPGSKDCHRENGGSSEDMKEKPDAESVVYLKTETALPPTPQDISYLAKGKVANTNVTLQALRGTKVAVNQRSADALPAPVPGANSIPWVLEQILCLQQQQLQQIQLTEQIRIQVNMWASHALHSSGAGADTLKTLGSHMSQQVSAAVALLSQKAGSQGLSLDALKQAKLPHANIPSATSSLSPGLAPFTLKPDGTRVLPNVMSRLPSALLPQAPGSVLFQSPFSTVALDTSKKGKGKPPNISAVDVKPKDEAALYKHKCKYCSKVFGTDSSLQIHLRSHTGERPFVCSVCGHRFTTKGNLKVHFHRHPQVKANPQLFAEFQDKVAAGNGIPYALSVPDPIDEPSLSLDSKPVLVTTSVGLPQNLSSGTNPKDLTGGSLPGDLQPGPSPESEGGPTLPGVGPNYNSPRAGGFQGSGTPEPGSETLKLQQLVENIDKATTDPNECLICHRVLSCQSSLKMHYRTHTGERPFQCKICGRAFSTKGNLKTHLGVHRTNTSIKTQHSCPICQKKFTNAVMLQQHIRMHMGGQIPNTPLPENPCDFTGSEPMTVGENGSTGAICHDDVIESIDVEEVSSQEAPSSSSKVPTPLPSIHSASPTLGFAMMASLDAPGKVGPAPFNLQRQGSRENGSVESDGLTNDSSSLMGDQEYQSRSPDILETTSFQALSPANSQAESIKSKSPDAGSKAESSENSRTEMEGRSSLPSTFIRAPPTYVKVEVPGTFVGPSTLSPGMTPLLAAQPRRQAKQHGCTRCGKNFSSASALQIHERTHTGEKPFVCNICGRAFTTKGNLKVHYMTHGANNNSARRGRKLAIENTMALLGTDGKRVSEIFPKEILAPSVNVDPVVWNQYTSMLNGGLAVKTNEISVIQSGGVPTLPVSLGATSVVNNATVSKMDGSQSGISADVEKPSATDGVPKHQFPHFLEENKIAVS
Technique: universal PBM
Form: double-stranded DNA, one strand shown
Medium: in vitro
Tested at: 600 nM
Notes: 8-mer, flanks averaged, mean of replicates
Direction: higher = stronger binding
Sequence | E-score
CAGTCAAA | 0.0407
GAACTCTC | -0.209
AGAAGCAT | 0.125
AACTCAAC | 0.037
AAGCGCGT | -0.171
GCTATTCA | 0.136
AGAGGTGG | -0.0255
CCTTCCGC | -0.281
GAGACGCA | -0.18
AATGACCC | -0.167
ATGTGCGA | -0.0439
ATGCTTTG | 0.199
CAAATTAA | 0.26
AGGCCCGG | -0.402
ACTAACCT | 0.0159
ATTAACTC | 0.232
GAATGATC | 0.17
ACTATTCA | 0.224
AACATGGT | -0.06
CTATACGA | 0.0621
CGCGTACA | -0.0654
AGAAGTCC | -0.0853

Sample 2
Target: ABI1, truncated, D143A, DHFR fusion (Arabidopsis thaliana)
Technique: DHFR PCA, deep sequencing
Medium: yeast
Notes: methotrexate growth selection, single substitutions
Added: (+)-ABA 17 µM
Relative to: wild-type fitted maximum
Direction: higher = stronger binding
Starting sequence: PYL1, truncated, DHFR fusion (Arabidopsis thaliana); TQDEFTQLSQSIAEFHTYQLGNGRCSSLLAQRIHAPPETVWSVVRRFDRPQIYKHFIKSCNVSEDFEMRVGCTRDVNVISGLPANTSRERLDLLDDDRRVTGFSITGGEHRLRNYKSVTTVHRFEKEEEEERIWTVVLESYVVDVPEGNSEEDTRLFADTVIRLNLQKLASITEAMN
Change | relative binding score [%]
L93Y | 86.6
K58S | 76.4
S117N | 19
D92I | 29.1
R98M | 69.7
E147K | 80.2
Q2S | 83.6
E151A | 91.5
A13T | 77.7
D144P | 21.9
G21L | 71
T101K | 1.52
R163H | 49.9
F103C | -10.7
F56L | 76.3
Q10V | 73.7

Sample 3
Target: RNA binding protein fox-1 homolog 2, RRM domain, GST-SBP tag (RBFOX2, Homo sapiens, UniProt O43251-10, residues 100-194)
Technique: RNA Bind-n-Seq
Form: RNA
Medium: in vitro
Tested at: 365 nM
Notes: natural RNA segment, single round, ends assumed
Relative to: no-protein control
Direction: higher = stronger binding
Construct (chain): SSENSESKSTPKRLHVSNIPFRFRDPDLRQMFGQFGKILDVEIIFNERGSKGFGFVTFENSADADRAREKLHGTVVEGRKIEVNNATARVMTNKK
Sequence | RBNS enrichment (R)
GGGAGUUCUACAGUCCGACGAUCCUUAAAGCAUCAGUGAAAUUAUGGAAAAUUACUUAAAACGUGAAUACAUCAUCACAGUAGAAUUUAUUAUGAGAGCAUGUAGUAUGUAUCUGUAGCCCUAACACAUGGGAUGGAAUUCUCGGGUGCCAA | 6.79
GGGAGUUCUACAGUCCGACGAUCGUUUUAGAAAUGGCACAUAGGCUUCUAUUACCUGUUAGGUGGAGAUUUUGUAUGUAAAUGUGUUAGCACUGAUAGUCCUUUUCCAGUGUUUUAUUGGGAAAUUAAAUAGUUGGAAUUCUCGGGUGCCAA | 1.56
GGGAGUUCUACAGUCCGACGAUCAUCUUGCUACCCGCUUUUGCCUGACUCAGACUCCAGCUCUCAUACAGCUCUGUCUGCCACACACGUGCAAGCAAUUGUGAUUUAGAGUCACCUCCUAUCCCAUUUGAUCUUGGAAUUCUCGGGUGCCAA | 0.288
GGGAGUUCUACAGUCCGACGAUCUUUGCACCCCGGCAUCAGCACAGGGGUCCCUGCCCCACCCUCCGGCAGCUCAGGGAGUGUUUUCCUGUGAGGCCUCCCCCAUCAGUGGACCAGAGGGAGAAGCCCGAUGCUGGAAUUCUCGGGUGCCAA | 0.45
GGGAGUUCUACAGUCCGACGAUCAGGUCCUGCAGGUCGAUGUGUGAGUCAGGAAACACUGCAGGGAAAUAGACCUUUCCUUCCGUACCUGAGAGCUGCAGGUACCAAGGGAUCUACCGUGCAGGGACUGGGCAUGGAAUUCUCGGGUGCCAA | 1.36
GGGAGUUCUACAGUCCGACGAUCUUGUAAUAAGCAAUCAAGGUUAUAAUUUUUUUUAAAAUAGAAAUUUUGUAAGAAGGCAAUAUUAACCUAAUCACCAUGUAAGCACUCUGGAUGAUGGAUUCCACAAAACUUGGAAUUCUCGGGUGCCAA | 0.577
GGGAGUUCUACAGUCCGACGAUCAGUUGGCUUCUGUCUCUUUAGAGCCAAGAAAAUAGUAAUUAAGUGGCCUAGAUAUAGGAAGGGCAGAAUAAGCACUUACUCCCCCUGCCUUCCAAGAUGAAGAGGAGAAGUGGAAUUCUCGGGUGCCAA | 0.377
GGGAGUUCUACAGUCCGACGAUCGUGGCUUUUCAUGUUCUCCUUUAGCCAAGGCUCCCUUUUUCCAAGUGAUGUCUUUCAGGGAAGCAGUGUUUGAAAUAGAUAGCGGGUACCUUCCCUGGAUGGAGUCAGGGUGGAAUUCUCGGGUGCCAA | 0.402
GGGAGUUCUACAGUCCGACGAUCCGUGCAGACAUGUGACAGGAUUGUCUCUCAACAGCACAAGUACUUCAAUGCCUACCGUCGGCCCACCUGAGCGGUCUUCACCUUUGCCAACUUUGACGGAUUUCUGUGUGUGGAAUUCUCGGGUGCCAA | 0.394
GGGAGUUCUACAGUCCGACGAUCAAGGAGCAGGCGGAGGGGAGUACACUUUCAUGUGAUUUAAUUUUGAUCCUGCCCUCUCCAGCUGCUCCUUCAAAAGAUACAUCAAAAGAUAGAAACUCUGGGCUGGGCACUGGAAUUCUCGGGUGCCAA | 0.303
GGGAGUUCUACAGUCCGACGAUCAUCAUGUGUUUUUUGUCUUUGGCUCUGUUUAUAUGCUGGAUUACAUUCAUUGAUUUGCGUAUAUUGAACCAGCCUUGCAUCCCAGGGAUGAAGCCCACUUGAUCAUGGUGUGGAAUUCUCGGGUGCCAA | 0.394
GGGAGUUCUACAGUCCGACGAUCGGCAUGCUAAGUCCUGUAAUUCCCUCUAACAUUGAGUCAGAUACAUCAUGGGACAUCAUGGGAUGGCAGCUAGAUAGCAUGAAACAAUUUAUCUUCUCAUAUUUGACAAAUGGAAUUCUCGGGUGCCAA | 41.7

Sample 4
Target: Histone acetyltransferase KAT6A, winged helix 1, GST fusion (KAT6A, Homo sapiens, UniProt Q92794, residues 1-85)
Technique: protein binding microarray
Form: double-stranded DNA, one strand shown
Medium: in vitro
Tested at: not given
Notes: 8-mer, flanks averaged, mean of 2 arrays, mostly near background
Relative to: not given
Direction: higher = stronger binding
Target sequence (chain): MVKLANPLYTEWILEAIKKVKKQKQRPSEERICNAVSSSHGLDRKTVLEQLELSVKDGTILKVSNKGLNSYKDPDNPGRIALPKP
Sequence | E-score
CCTCCAGC | -0.00235
GGATTACC | -0.0101
GTGCTATA | -0.0929
ACGAAGCA | -0.179
AAATGTAT | -0.133
AGACGCCA | 0.0378
AATACCAT | -0.183
GGGGGTAA | -0.0998
GCAGCGAC | 0.219
AAGGATGT | -0.206
GGCTTTGA | 0.0267
AATAGACT | -0.216
GCAGCGCA | 0.266
GTTGGTTA | -0.168
AGACTTCC | -0.0772
AGGATACT | -0.0857
ATTGATAA | -0.233
